Results collected from several papers.
Each numbered part is a random draw from the data of one study; scales do not carry over between parts.

Series 1 — method: protein binding microarray; molecule type: double-stranded DNA, one strand shown; sample: in vitro; concentration: not given; reference: not given; reading: higher = stronger binding
Target: Histone acetyltransferase KAT6A, winged helix 2, GST fusion (KAT6A, Homo sapiens, UniProt Q92794, residues 85-181)
Notes: 8-mer, flanks averaged, mean of 2 arrays, mostly near background
Residues (chain): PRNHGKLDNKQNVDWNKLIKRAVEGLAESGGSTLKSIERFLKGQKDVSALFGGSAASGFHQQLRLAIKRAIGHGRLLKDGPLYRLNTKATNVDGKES
`CCCGGGTA` gave an E-score of 0.117.
`CTTGCCTC` gave an E-score of 0.00732.
`GAGGTGCC` gave an E-score of 0.0576.
`CCCGGAAA` gave an E-score of 0.0867.

Series 2 — method: universal PBM; molecule type: double-stranded DNA, one strand shown; sample: in vitro; concentration: 600 nM; reading: higher = stronger binding
Target: Sal-like protein 4, full length isoform A (SALL4, Homo sapiens, UniProt Q9UJQ4, residues 1-1053)
Chain of UniProt Q9UJQ4 (whole entry, looked up): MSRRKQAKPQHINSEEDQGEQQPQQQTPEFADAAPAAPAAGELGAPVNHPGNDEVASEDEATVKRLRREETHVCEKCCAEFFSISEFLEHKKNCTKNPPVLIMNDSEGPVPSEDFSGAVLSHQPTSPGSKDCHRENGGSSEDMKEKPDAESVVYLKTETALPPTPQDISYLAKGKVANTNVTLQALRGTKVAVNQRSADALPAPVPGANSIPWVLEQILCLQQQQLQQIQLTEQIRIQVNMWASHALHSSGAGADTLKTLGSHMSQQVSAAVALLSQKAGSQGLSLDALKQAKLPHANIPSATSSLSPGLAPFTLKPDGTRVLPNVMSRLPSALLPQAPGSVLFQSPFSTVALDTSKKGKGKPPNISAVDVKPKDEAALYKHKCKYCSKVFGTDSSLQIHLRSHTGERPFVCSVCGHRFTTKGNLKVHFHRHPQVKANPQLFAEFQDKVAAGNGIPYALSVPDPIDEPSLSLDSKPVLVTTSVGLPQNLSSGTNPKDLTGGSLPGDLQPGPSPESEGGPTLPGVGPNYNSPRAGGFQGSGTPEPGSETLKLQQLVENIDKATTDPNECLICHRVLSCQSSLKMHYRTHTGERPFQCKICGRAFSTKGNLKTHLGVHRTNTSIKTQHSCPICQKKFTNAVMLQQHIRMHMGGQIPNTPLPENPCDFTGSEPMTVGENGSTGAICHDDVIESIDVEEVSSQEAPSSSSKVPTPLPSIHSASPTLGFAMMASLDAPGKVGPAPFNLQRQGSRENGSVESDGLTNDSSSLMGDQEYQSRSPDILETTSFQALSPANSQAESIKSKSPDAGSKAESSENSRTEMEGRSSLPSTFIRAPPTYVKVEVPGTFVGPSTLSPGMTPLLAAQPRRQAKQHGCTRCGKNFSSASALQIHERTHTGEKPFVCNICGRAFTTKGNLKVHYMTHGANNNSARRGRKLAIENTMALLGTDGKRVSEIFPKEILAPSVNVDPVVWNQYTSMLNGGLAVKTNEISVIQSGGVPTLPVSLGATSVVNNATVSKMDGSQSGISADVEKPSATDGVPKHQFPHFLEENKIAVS
Notes: 8-mer, flanks averaged, mean of replicates
`CACTGGGA` gave an E-score of -0.2.
The E-score of `AAACTGGG` is reported as -0.201.
For `AGATTCAC`, the E-score was -0.113.
The E-score of `ATCGTAAA` is reported as 0.219.
With `ATAAAGCA` the E-score was 0.238.
`ATCGGTCA` gave an E-score of 0.00588.
For `CGAAGACC`, the E-score was -0.246.

Series 3 — method: RNA Bind-n-Seq; molecule type: RNA; sample: in vitro; concentration: 365 nM; reference: no-protein control; reading: higher = stronger binding
Target: RNA binding protein fox-1 homolog 2, RRM domain, GST-SBP tag (RBFOX2, Homo sapiens, UniProt O43251-10, residues 100-194)
Notes: natural RNA segment, single round, ends assumed
Constant ends, left off below: GGGAGUUCUACAGUCCGACGAUC … UGGAAUUCUCGGGUGCCAA
For `CUGCCUUCAGAUUCCUGCCGCCAUCUUCUGCCUGCAGGAUUGGGACUCCCACCCUGGCAUCAGACACCAGGCUUUGUCUUCUGGAGUUGCAGCCAGCGCUGCCCCAUGCC`, “RBNS enrichment (R)” read 0.754.
For `UCCAUCCAUCCAUUCAUCCAUCCCCAGUGUUCCAUGUGUCACCUUCUCCUUUUCCAGCAUCCCUAUCCUAUGGUGCUUUGGUGGUGAACUAUGGCAGUCCUGACUUGCUG`, “RBNS enrichment (R)” read 1.19.
`UCCAUCAGACCUCUUCCAUUUUGCACAGGGAGUGCAGGAGGUGAAUGUUCACUUUCUGUUCUCCAGUGUCACUGUUCUGUUUCCACGGGAUGGAAAGCGCAUGGGCCUGU`: “RBNS enrichment (R)” 0.689.
For `UUGAUGUAAUACAUAGCUGUAUGGGGUUUUUUUUAGUAAGUUCUUUGAGCAUAAUUCACUUUAAAGUCAUUUUUCCAGCAAUGUUUAAAUUACUUUCUCAUUCUUUUAGU`, “RBNS enrichment (R)” read 0.672.
For `GUUCCAUGAGCUAUUCCUCUUUGGUUUGGCUUUUUGAUAUGAUUAAAAUUAUUUUUUAUUCCUUUUUCUACUGUGUCUUAAACACCAAUUCCUGAUAGUCCAAGGAACCA`, “RBNS enrichment (R)” read 0.452.
For `UACUACUAAAAGCCAGAAAGAACAGAACAGUGGCCUCAGGAGAUCUGAGUUUGAAUCCUUGCUCUCUAGGAUGCAGGUGGCUUGAAGCAGAAUGCCACACCUGCAAGUUG`, “RBNS enrichment (R)” read 3.36.

Single results of other studies
`PhoQ, residues 284 288 289 292 302 303 SQSLSM` has a fold induction of 1.08 (PhoP, residues 12 14 15 18 19 TPLRH (Escherichia coli, UniProt P23836); Sort-seq, measured: YFP reporter; E. coli; PhoQ-PhoP variant library, added: 10 µM Mg2+; reference: high Mg2+ state, higher = stronger signaling).

Excerpt of the above (series 2):
The E-score of `ATCGTAAA` is reported as 0.219.
With `ATAAAGCA` the E-score was 0.238.
